Assay results gathered from unrelated publications.
Numbered parts are unrelated; each lists some results of a single study.

Study 1 — read-out: enzyme activity; action: inhibitor; concentration: 10 µM; endpoint: inhibition
Target: Calcium/calmodulin-dependent protein kinase type II subunit alpha (CAMK2A, Homo sapiens, UniProt Q9UQM7)
Sequence of UniProt Q9UQM7 (whole entry, looked up): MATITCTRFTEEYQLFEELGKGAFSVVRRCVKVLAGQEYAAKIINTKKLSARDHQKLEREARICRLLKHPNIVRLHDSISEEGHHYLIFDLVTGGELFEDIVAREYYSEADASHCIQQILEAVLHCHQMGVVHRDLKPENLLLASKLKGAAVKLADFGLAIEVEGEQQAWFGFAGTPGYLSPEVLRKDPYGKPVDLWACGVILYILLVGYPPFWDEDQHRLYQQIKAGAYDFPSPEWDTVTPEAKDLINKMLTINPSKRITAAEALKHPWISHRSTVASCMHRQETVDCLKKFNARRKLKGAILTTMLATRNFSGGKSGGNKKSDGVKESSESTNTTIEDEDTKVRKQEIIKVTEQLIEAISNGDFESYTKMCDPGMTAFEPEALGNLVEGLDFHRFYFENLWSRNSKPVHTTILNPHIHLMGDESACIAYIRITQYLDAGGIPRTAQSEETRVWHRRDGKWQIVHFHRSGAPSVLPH
CN(C)CCc1ccc(O)cc1: 2%
COc1cc([C@@H]2c3cc4c(cc3C[C@H]3COC(=O)[C@@H]32)OCO4)cc(OC)c1OC: -16%
O=C(O)CCCCCCCCCCCO: 4%
CCCCCCCCCC(=O)N[C@@H](Cc1c[nH]c2ccccc12)C(=O)N[C@H](CC(N)=O)C(=O)N[C@@H](CC(=O)O)C(=O)N[C@@H]1C(=O)NCC(=O)N[C@@H](CCCN)C(=O)N[C@@H](CC(=O)O)C(=O)N[C@H](C)C(=O)N[C@@H](CC(=O)O)C(=O)NCC(=O)N[C@H](CO)C(=O)N[C@@H]([C@H](C)CC(=O)O)C(=O)N[C@@H](CC(=O)c2ccccc2N)C(=O)O[C@@H]1C: -7%
COc1cc(-c2cc(=O)c3c(O)cc(O)cc3o2)cc(OC)c1O: -5%

Study 2 — target: panel of 300 human kinases; concentration: 0.5 µM; direction: higher = more selective; endpoint: Gini score
O=c1[nH]c2ccccc2n1C1CCN(Cc2ccc(-c3[nH]c4cc5ncnc5cc4nc3-c3ccccc3)cc2)CC1: 0.75
CN[C@@H]1C[C@H]2O[C@@](C)([C@@H]1OC)n1c3ccccc3c3c4c(c5c6ccccc6n2c5c31)C(=O)NC4: 0.2
O=C1NC(=O)c2c1c1c3ccccc3n3c1c1c2c2ccccc2n1[C@H]1CC[C@@H]3O1: 0.36

Mixed results
NC(=O)C[S@@+]([O-])C(c1ccccc1)c1ccccc1 — nuclei count (mouse MPNST tumor cells; high-content nuclear imaging, item: cell number; 10 µM, 12 h, mean of 2 replicates; reference: plate mean, higher = more cells): 1.44 z-score
CC(=O)N[C@@H](Cc1c[nH]c2ccccc12)C(=O)N[C@@H](CCC(=O)C=[N+]=[N-])C(=O)OC(C)C — haemoglobin (C57BL/6 CES1-/- mouse, blood; intravenous, 1 mg/kg equivalent): 7.47 g/dL
Cc1cccc(C(C)c2c[nH]cn2)c1C (centres unmarked) — nuclei count (mouse MPNST tumor cells; high-content nuclear imaging, item: cell number; 10 µM, 12 h, mean of 2 replicates; reference: plate mean, higher = more cells): 0.91 z-score

Excerpt of the above (study 1):
COc1cc(-c2cc(=O)c3c(O)cc(O)cc3o2)cc(OC)c1O: -5%
